Assay results of several laboratories.
Several values in a cell are separate wells, animals, samples, runs or records.
Target: Alpha-2A adrenergic receptor (ADRA2A, Homo sapiens, UniProt P08913)
Sequence of UniProt P08913 (whole entry, looked up): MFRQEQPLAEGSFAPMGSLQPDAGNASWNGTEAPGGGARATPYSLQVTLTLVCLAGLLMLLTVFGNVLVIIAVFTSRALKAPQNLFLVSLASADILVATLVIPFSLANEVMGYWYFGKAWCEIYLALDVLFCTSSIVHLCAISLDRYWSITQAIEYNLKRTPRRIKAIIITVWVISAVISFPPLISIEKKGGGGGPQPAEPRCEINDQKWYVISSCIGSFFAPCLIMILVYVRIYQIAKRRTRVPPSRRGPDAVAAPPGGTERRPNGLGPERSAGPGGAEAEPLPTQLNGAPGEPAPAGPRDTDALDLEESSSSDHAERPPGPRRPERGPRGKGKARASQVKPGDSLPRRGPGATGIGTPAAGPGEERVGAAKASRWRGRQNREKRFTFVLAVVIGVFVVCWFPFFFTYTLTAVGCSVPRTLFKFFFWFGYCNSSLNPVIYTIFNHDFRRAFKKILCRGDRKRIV

O=C(c1cc(Cc2n[nH]c(=O)c3ccccc23)ccc1F)N1CC(CNC2CC2)C1
inhibition (cell-free assay; 10 µM): 25%

CCc1nnc(-c2c(OC)cc(-c3cnc4cc(-c5cnn(C)c5)ccn34)cc2OC)o1
remaining binding (antagonist radioligand, radioligand binding; 10 µM, SafetyScreen44 alpha 2 A mean; lower = stronger displacement): 107%

CN[C@@H]1[C@H](O)[C@H](NC)[C@H]2O[C@]3(O)[C@H](O[C@@H]2[C@H]1O)O[C@H](C)C[C@H]3NC(=O)Cc1ccc(Cl)cn1
inhibition (ligand displacement, radioligand; 10 µM): -4%

CCOC(=O)[C@](CC)(CCCSCCOCCOCCNC(=O)c1ccc(-c2c3ccc(=N)c(S(=O)(=O)O)c-3oc3c(S(=O)(=O)O)c(N)ccc23)c(C(=O)O)c1)NC(=O)c1ccc(C2CC2)c(Cc2ccc(F)cc2)n1
inhibition (ligand displacement, radioligand; 10 µM): 5%

CS(C)(=O)=Nc1ccc(-c2ccc(-c3nc4cc(O[C@@H]5CO[C@H]6[C@@H]5OC[C@H]6O)[nH]c4cc3F)cc2)cc1
inhibition (calcium signal, antagonist; 10 µM): -3%

C[C@@H]1COCCN1c1nc(NCc2cccnc2C(F)(F)F)c2cccnc2n1
IC50 (binding; CEREP panel): > 100 µM

COc1ccc(F)cc1S(=O)(=O)Nc1cnc2c(c1)C(=O)NCCO2
inhibition (ligand displacement, radioligand; 10 µM): 7%

N[C@H](C(=O)N1CCCC1)C1CCN(c2nccc3c(-c4ncc(Cl)cc4Cl)cccc23)CC1
response (functional response, agonist; 10 µM): 0%

CCCO[C@H]1[C@H](O)[C@@H](N)[C@@H](O[C@H]2[C@H](O[C@@H]3O[C@H](CO)[C@@H](O[C@H]4O[C@@H](CN)[C@@H](O)[C@H](O)[C@H]4N)[C@H]3O)[C@@H](O)[C@H](N)C[C@@H]2N)O[C@@H]1CO
specific binding (radioligand binding; 10 µM, 1% DMSO): 7%

O=C(O)c1ccc(-c2nc(-c3ccccc3Cl)c3sccn23)cc1
specific binding (radioligand binding; 10 µM, with: yohimbine; baseline: control): 98.8% and 95.1%

Cc1ccc2c(n1)c(-c1cccc(S(C)(=O)=O)c1)c(C)n2C/C(F)=C/CN
inhibition (ligand displacement, radioligand; 10 µM): 65%

C/C(=N\OCCCN1CCCCC1)c1ccc(C(F)(F)F)cc1
activation (agonist, IP-One; 10 µM): 2.45%

Cc1cc(Nc2nc(C[C@@]3(C(=O)O)CCN(Cc4cccc(Cl)c4F)[C@H](C)C3)cc(C)c2F)[nH]n1
inhibition (inhibitor; 10 µM): 1.15%

Cc1cc(-c2ccc3ccccc3c2)nnc1NCCN1CCN(C)CC1
activity (antagonist; 10000 nM; baseline: control): 0%

A few entries again:
CCOC(=O)[C@](CC)(CCCSCCOCCOCCNC(=O)c1ccc(-c2c3ccc(=N)c(S(=O)(=O)O)c-3oc3c(S(=O)(=O)O)c(N)ccc23)c(C(=O)O)c1)NC(=O)c1ccc(C2CC2)c(Cc2ccc(F)cc2)n1
inhibition (ligand displacement, radioligand; 10 µM): 5%
